Measurements collected from several papers.
Each line is one published result; not all experiments were run side by side. Numbers after ± are the reported error.

CC(C)C[C@H](NC(=O)[C@@H](CCCCNC(=O)CCCCCNC(=O)CN1CCN(CC(=O)O)CCN(CC(=O)O)CCN(CC(=O)O)CC1)NC(=O)[C@H](Cc1ccc(O)cc1)NC(=O)[C@H](CO)NC(=O)[C@H](Cc1c[nH]c2ccccc12)NC(=O)[C@H](Cc1cnc[nH]1)NC(=O)[C@@H]1CCC(=O)N1)C(=O)N[C@@H](CCCNC(=N)N)C(=O)N1CCC[C@H]1C(=O)NCC(N)=O [indium-111 labelled] — tissue uptake (female athymic nude mouse, pancreas; intravenous, 0.037 MBq, 2 h): 0.15 ± 0.02 %ID/g
N=C(N)NCCC[C@@H]1NC(=O)[C@H](CCCCNC(=O)CC[C@H](NC(=O)CC[C@H](NC(=O)CN2CCN(CC(=O)O)CCN(CC(=O)O)CCN(CC(=O)O)CC2)C(=O)N[C@@H](CCC(=O)NCCCC[C@@H]2NC(=O)[C@@H](Cc3ccccc3)NC(=O)[C@H](CC(=O)O)NC(=O)CNC(=O)[C@H](CCCNC(=N)N)NC2=O)C(=O)NCCCC[C@@H]2NC(=O)[C@@H](Cc3ccccc3)NC(=O)[C@H](CC(=O)O)NC(=O)CNC(=O)[C@H](CCCNC(=N)N)NC2=O)C(=O)NCCCC[C@@H]2NC(=O)[C@@H](Cc3ccccc3)NC(=O)[C@H](CC(=O)O)NC(=O)CNC(=O)[C@H](CCCNC(=N)N)NC2=O)NC(=O)[C@@H](Cc2ccccc2)NC(=O)[C@H](CC(=O)O)NC(=O)CNC1=O [indium-111 labelled] — tissue uptake (female athymic nu/nu mice, blood; intravenous, 1 h): 0.37 ± 0.08 %ID/g
CCCC[C@H](NC(=O)COCCOCCNC(=O)CN1CCN(CC(=O)O)CCN(CC(=O)O)CC1)C(=O)N[C@H]1CC(=O)NCCCC[C@@H](C(N)=O)NC(=O)[C@H](Cc2c[nH]c3ccccc23)NC(=O)[C@H](CCCNC(=N)N)NC(=O)[C@@H](Cc2ccccc2)NC(=O)[C@H](Cc2c[nH]cn2)NC1=O [copper-64 labelled] — tissue uptake (C57 mice, liver; intravenous, 0.37 MBq, 2 h): 1.94 ± 0.26 %ID/g
CCCC[C@H](NC(=O)CNC(=O)CNC(=O)CN1CCN(CC(=O)O)CCN(CC(=O)O)CC1)C(=O)N[C@H]1CC(=O)NCCCC[C@@H](C(N)=O)NC(=O)[C@H](Cc2c[nH]c3ccccc23)NC(=O)[C@H](CCCNC(=N)N)NC(=O)[C@@H](Cc2ccccc2)NC(=O)[C@H](Cc2c[nH]cn2)NC1=O [technetium-99m labelled] — tissue uptake (C57 mouse, stomach; iv, 0.037 MBq, 4 h): 0.25 ± 0.06 %ID/g
CC(C)C[C@H](NC(=O)[C@H](Cc1ccc(O)cc1)NC(=O)[C@@H](CCCNC(=N)N)NC(=O)[C@@H](CO)NC(=O)[C@H](Cc1ccccc1)NC(=O)[C@H](CC1CCCCC1)NC(=O)[C@H](CC(=O)O)NC(=O)CN1CCCN2CCN(CCCN(CC(=O)O)CC2)CC1)C(=O)N[C@@H](Cc1c[nH]c2ccccc12)C(=O)N[C@@H](CO)C(=O)O [copper-64 labelled] — tissue uptake (female NMRI nude mice, heart; 1 h p.i.): 1.2 ± 0.1 %ID/g
CCCC[C@H](NC(=O)CCCCCCCNC(=O)CN1CCN(CC(=O)O)CCN(CC(=O)O)CC1)C(=O)N[C@H]1CC(=O)NCCCC[C@@H](C(N)=O)NC(=O)[C@H](Cc2c[nH]c3ccccc23)NC(=O)[C@H](CCCNC(=N)N)NC(=O)[C@@H](Cc2ccccc2)NC(=O)[C@H](Cc2c[nH]cn2)NC1=O [copper-64 labelled] — tissue uptake (C57 mice, stomach; intravenous, 0.37 MBq, 0.5 h): 1.67 ± 0.68 %ID/g
CCCC[C@H](NC(=O)CNC(=O)CNC(=O)CN1CCN(CC(=O)O)CCN(CC(=O)O)CCN(CC(=O)O)CC1)C(=O)N[C@H]1CC(=O)NCCCC[C@@H](C(N)=O)NC(=O)[C@H](Cc2c[nH]c3ccccc23)NC(=O)[C@H](CCCNC(=N)N)NC(=O)[C@@H](Cc2ccccc2)NC(=O)[C@H](Cc2c[nH]cn2)NC1=O [lutetium-177 labelled] — tissue uptake (C57 mouse, female, bone; intravenous, 0.037 MBq, 4 h): 0.64 ± 0.33 %ID/g
N=C(N)NCCC[C@@H]1NC(=O)[C@H](CCCCNC(=O)CNC(=O)CNC(=O)CNC(=O)CC[C@H](NC(=O)CNC(=O)CNC(=O)CNC(=O)CN2CCN(CC(=O)O)CCN(CC(=O)O)CCN(CC(=O)O)CC2)C(=O)NCC(=O)NCC(=O)NCC(=O)NCCCC[C@@H]2NC(=O)[C@@H](Cc3ccccc3)NC(=O)[C@H](CC(=O)O)NC(=O)CNC(=O)[C@H](CCCNC(=N)N)NC2=O)NC(=O)[C@@H](Cc2ccccc2)NC(=O)[C@H](CC(=O)O)NC(=O)CNC1=O [indium-111 labelled] — tissue uptake (female athymic nu/nu mice, tumor; intravenous, 1 h): 8 to 15 %ID/g

Repeated from above:
CCCC[C@H](NC(=O)COCCOCCNC(=O)CN1CCN(CC(=O)O)CCN(CC(=O)O)CC1)C(=O)N[C@H]1CC(=O)NCCCC[C@@H](C(N)=O)NC(=O)[C@H](Cc2c[nH]c3ccccc23)NC(=O)[C@H](CCCNC(=N)N)NC(=O)[C@@H](Cc2ccccc2)NC(=O)[C@H](Cc2c[nH]cn2)NC1=O [copper-64 labelled] — tissue uptake (C57 mice, liver; intravenous, 0.37 MBq, 2 h): 1.94 ± 0.26 %ID/g
